Experimental data pooled from the literature.
Every numbered part comes from another study and shows a few of its results, in no order. Changes are numbered by the printed parent chain.

Study 1
Target: Histone acetyltransferase KAT6A, winged helix 2, GST fusion (KAT6A, Homo sapiens, UniProt Q92794, residues 85-181)
Method: protein binding microarray
Molecule type: double-stranded DNA, one strand shown
Sample: in vitro
Tested at: not given
Notes: 8-mer, flanks averaged, mean of 2 arrays, mostly near background
Baseline: not given
Direction: higher = stronger binding
Target sequence (chain): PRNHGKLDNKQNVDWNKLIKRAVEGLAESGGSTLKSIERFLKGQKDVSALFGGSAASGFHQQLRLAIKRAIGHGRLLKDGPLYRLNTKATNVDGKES
The E-score of `AAGAAGCG` is reported as -0.12.
`TTGTTAAA` has an E-score of -0.00658.
`AAAAGAGC` has an E-score of -0.103.
`AGTTGTGC` has an E-score of -0.00976.
`CAGCAATC` gave an E-score of 0.109.
With `ACTAGGAG` the E-score was 0.0246.
`ATATAAAT` gave an E-score of 0.226.
For `AGCGGCAC`, the E-score was -0.0963.
The E-score of `TCAGACGA` is reported as -0.102.

Study 2
Target: CCNF, cyclin fold, Cln2 fusion (human)
Method: yeast growth competition, sequencing
Sample: yeast
Notes: strong parent motif
Baseline: not given
Direction: higher = stronger binding
Starting sequence: SLBP docking peptide (human); ARYKRKLLINDFG
`Y3S`: “normalised enrichment score” 2.27.
Under “normalised enrichment score”, `I9D` is recorded as 0.993.
Under “normalised enrichment score”, `K4P` is recorded as 1.34.
Under “normalised enrichment score”, `R2K` is recorded as 2.42.
For `R5M`, “normalised enrichment score” read 2.32.

Study 3
Target: RNA binding protein fox-1 homolog 2, RRM domain, GST-SBP tag (RBFOX2, Homo sapiens, UniProt O43251-10, residues 100-194)
Method: RNA Bind-n-Seq
Molecule type: RNA
Sample: in vitro
Tested at: 365 nM
Notes: natural RNA segment, single round, ends assumed
Baseline: no-protein control
Direction: higher = stronger binding
All sequences stand within: GGGAGUUCUACAGUCCGACGAUC … UGGAAUUCUCGGGUGCCAA
Construct (chain): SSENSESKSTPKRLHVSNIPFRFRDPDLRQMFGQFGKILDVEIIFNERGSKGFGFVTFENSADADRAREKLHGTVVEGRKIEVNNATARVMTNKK
`ACAGAGGCACAAGAUGAUGCAGGGCUAUAAAGCCCUCCCUGGAGCUUUCAGGAGGGCCAGUUCCAAUCCUGAUCACAGCCUGCAUGGAUUUCCACUUGCCUGGUGCUUGC` — result for “RBNS enrichment (R)”: 0.809.
For `CUUUCCUAUUUAAAACAGGUUAGAUUUUAAAAUAGAGCUUUGUAUUGUGUAAUGGUUUUAUAUAUUAGCUUUGUAUAAGCUUUCAUGUAAGAGUCAUAUUUUUUGGCUUU`, “RBNS enrichment (R)” read 0.753.
`AGUGAAUUUUUAAUGCUGAAGAUAAAGUAAGCUAAAGUACCAGCAGAAGCCUUGGCUAUUUAUAGCAGUUCUGACAAUAGUUUUAUAAGAACAUGAAGAGAACAGAAUCA`: “RBNS enrichment (R)” 0.597.
Under “RBNS enrichment (R)”, `CAGGUCUUUCACUGCAGAUGGGGCUGCUGUGGGAGUUGGGACUUGUUUGUUUUCCUUUUUGAGUUCACGUUGGAUCCUUUCUUGUACAACUUCUGCGGAAGGACACAGUA` is recorded as 0.915.
`GGAGCAGUUGCCCUCAGGCCUGUGCCCAGCAUGCCCUCCCCUUUUUAUACGAAUGUUUUCUACCAGUGUGCUUGGGUUUGCCAUGAUGCGAGGCUGAGUUGCUGUAGCGU` — result for “RBNS enrichment (R)”: 15.
`CCUAAGGAAGCCAGUCACCUUCUGGGCAAGGGCUCCUAUCUUUCCUCCCUAUCCAUGGCACUAAACCACUUCUCUGCUGCCUCUGUGGAAGAGAUUCCUAUUACUGCAGU` — result for “RBNS enrichment (R)”: 0.4.
`GGGGUGGGCGCCGCUAGCCAAGAAAACACUAGAGAGCUGCAGGUACCUGCCACUUGGUCCUGGGAGGUCAAAGGCCACAGAGGGAUAGGUACAGUCACCACCACCCUGGA` — result for “RBNS enrichment (R)”: 0.386.
For `AAAUGCCAGUUUGGCAAACUCAGCACUCCUGUUCCCUGCUCAGGUAUAUGCGAUCUCUACCGAGAAGCAAGCACAAAAGUAGACAAAAGUAUUAAUGAGUAUUUCCUUUC`, “RBNS enrichment (R)” read 0.341.
`AGAUCAAGUUCUAUGCCAGGGCUGCAGCCAAGCAGGCCCUGAGUGGAGGAUCCUGACUCUCCUCUUUCCCAAACCAAGAGUUCAAGACUUUGGCGCCUUUUCUGAACCAC`: “RBNS enrichment (R)” 0.246.
Under “RBNS enrichment (R)”, `GUUAUUAGAACGAGUCUUUCUUAUAAACUAACAGAGCAGGUAUAUGCCUGUUAGACCUUAGCUGUGGGGUUCCUUUACUAUUGGGUGAAUCAUUAGGUAUAAAAAAUAAU` is recorded as 0.722.
For `CCACUCACCCCUCAGACUCCUGCUGCCCAUGCUGUGGCCGGACUUGUCAGCAGGGGGCCUGGUGGGAGGAGCGACUGCCCUGCCCAAAUGAACUGCCACAGCAGGGACAG`, “RBNS enrichment (R)” read 0.6.
`UUGGCAACAGUCUACCUUAUUUAAAGCUUCUACUGGGAUAAACCUCAAUUCCUUUAUUCAGGAAAGGAUACUUUAUUGCAUUAUUGUUGCAGAAGCAUAGAUUUAAUUGC` — result for “RBNS enrichment (R)”: 0.392.

Further values, each from its own experiment
For `PhoQ, residues 284 288 289 292 302 303 ASVMEA`, the fold induction was 3.85 (PhoP, residues 12 14 15 18 19 NQFFI (Escherichia coli, UniProt P23836); Sort-seq, item: YFP reporter; E. coli; PhoQ-PhoP variant library, added: 10 µM Mg2+; baseline: high Mg2+ state, higher = stronger signaling).
